# Experimental data gathered from unrelated publications.
# Each numbered part is a random draw from the data of one study; scales do not carry over between parts. Substitutions count along the parent as printed.

# Block 1
# Target: NFIL3, bZIP domain (human)
# Method: DHFR protein complementation
# Sample: yeast
# Setting: single substitutions, most at no-binding floor
# Relative to: wild-type JUN-FOS pair
# Direction: higher = stronger binding
# Starting sequence: JUN, bZIP domain (human); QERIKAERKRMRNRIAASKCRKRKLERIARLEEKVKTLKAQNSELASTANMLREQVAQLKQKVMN; partner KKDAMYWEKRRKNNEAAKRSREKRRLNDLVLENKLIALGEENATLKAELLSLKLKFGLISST
Change,binding fitness [natural log]
T48Q,-1.5
R53G,-1.53
Q55M,-1.51
A40V,-1.26
V35G,-1.49
M51F,-1.57
K36M,-1.28
L52Y,-1.35
K34H,-1.35
E33V,-1.41
K39C,-1.45
I28W,-1.55
E33N,-1.56
K34E,-1.54
E32I,-1.46

# Block 2
# Target: Interferon regulatory factor 5, full length, phosphomimetic (IRF5, Homo sapiens, UniProt Q13568-2, residues 1-514, K96S/S451D/S453D/S456D/S462D)
# Method: protein-binding microarray
# Form: double-stranded DNA, one strand shown
# Sample: in vitro
# Concentration: 250 nM
# Setting: 60-bp whole probe
# Together with: salmon DNA 0.4 mg/ml
# Relative to: random background probes
# Direction: higher = stronger binding
# Shared flanks, not repeated: GCCTAGCAC … GTCTTGATTCGCTTGACGCTGCTG
Oligonucleotide,log fluorescence [z-score]
TCATCTTTATGTACTCTCACTGTGCTA,1.14
TTAGATATCAGTTTCGATGAGTGCTAG,9.35
TCATGTATATACTATATGACTGTGCTA,0.705
GATGTTTTTCATTTTTTTTCGTGCTAG,2.29
GACTATATCGGGACTGGAGACGTGCTA,0.731
TGAGTAATTACATAATTACGGTGCTAG,0.456
TCACATTTAGAAAATGGAACTGTGCTA,0.601
GGACTCACCTAGTTTCATTCCGTGCTA,2.31
TTAGGACTTGACTTTCGGTTAGTGCTA,9.97
TTAGGTTTCGGTCTCGGGTAGTGCTAG,10.4
TTAGGTATCGACTAACGGTTAGTGCTA,4.26
GACGGTTTCGACTATCGGGTCGTGCTA,7.78
GACGGCTTCGGTATCGGGACGTGCTAG,1.21
TACGGACTGGGTTTCGGGACGTGCTAG,2.1
TTAGGACTGAGTCTCGGTTAGTGCTAG,0.613
GACGGTATCGGGACTGGGTACGTGCTA,1.22
TCAATTTTTTTTTTCATACTGTGCTAG,1.33
GACGGTTTCGACCATCGGGACGTGCTA,5
TCATTTTTCATTTTTTTACTGTGCTAG,2.26
TATCTTATGATATATATAATAGTGCTA,1.43
CACGGTTTCGGGACTGGGGACGTGCTA,4.04
TCCTTTATGTACTCTCTACATGTGCTA,0.583
GACGGTTTCGACTATCGGAACGTGCTA,7.58
TAAGGTTTCGGTCTCGGTTAGTGCTAG,9.85
GGCTGTTTGATCTTGATCCTGTGCTAG,-0.312

# Block 3
# Target: ABI1, truncated, D143A, DHFR fusion (Arabidopsis thaliana)
# Method: DHFR PCA, deep sequencing
# Sample: yeast
# Setting: methotrexate growth selection, single substitutions
# Together with: (+)-ABA 0.39 µM
# Relative to: wild-type fitted maximum
# Direction: higher = stronger binding
# Starting sequence: PYL1, truncated, DHFR fusion (Arabidopsis thaliana); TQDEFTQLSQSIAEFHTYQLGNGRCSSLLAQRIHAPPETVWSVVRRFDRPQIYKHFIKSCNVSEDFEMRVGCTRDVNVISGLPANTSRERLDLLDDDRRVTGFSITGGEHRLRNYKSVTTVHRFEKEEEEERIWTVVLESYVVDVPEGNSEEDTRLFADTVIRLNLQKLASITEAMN; partner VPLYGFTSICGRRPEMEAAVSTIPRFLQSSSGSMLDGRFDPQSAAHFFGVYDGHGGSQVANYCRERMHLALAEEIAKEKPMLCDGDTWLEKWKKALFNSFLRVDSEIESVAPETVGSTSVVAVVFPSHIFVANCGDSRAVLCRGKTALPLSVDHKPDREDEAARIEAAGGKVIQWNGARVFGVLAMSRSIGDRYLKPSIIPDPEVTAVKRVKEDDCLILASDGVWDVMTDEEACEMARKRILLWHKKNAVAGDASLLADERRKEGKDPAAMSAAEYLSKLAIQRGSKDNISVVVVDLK
Change,relative binding score [%]
N114E,-12.7
M176F,-6.08
A13T,37
G102W,13.9
E139N,-7.54
E151A,62
F5L,58.4
D144P,-12.6
E147K,24.3
V44R,-0.786
H34L,43.3
F15G,0.63
I105V,30.3
R111F,6.91
A13N,41.6
S117N,-1.94
R74D,-9.86
Q2S,43.4

# Block 4
# Target: Sal-like protein 4, full length isoform A (SALL4, Homo sapiens, UniProt Q9UJQ4, residues 1-1053)
# Chain of UniProt Q9UJQ4 (whole entry, looked up): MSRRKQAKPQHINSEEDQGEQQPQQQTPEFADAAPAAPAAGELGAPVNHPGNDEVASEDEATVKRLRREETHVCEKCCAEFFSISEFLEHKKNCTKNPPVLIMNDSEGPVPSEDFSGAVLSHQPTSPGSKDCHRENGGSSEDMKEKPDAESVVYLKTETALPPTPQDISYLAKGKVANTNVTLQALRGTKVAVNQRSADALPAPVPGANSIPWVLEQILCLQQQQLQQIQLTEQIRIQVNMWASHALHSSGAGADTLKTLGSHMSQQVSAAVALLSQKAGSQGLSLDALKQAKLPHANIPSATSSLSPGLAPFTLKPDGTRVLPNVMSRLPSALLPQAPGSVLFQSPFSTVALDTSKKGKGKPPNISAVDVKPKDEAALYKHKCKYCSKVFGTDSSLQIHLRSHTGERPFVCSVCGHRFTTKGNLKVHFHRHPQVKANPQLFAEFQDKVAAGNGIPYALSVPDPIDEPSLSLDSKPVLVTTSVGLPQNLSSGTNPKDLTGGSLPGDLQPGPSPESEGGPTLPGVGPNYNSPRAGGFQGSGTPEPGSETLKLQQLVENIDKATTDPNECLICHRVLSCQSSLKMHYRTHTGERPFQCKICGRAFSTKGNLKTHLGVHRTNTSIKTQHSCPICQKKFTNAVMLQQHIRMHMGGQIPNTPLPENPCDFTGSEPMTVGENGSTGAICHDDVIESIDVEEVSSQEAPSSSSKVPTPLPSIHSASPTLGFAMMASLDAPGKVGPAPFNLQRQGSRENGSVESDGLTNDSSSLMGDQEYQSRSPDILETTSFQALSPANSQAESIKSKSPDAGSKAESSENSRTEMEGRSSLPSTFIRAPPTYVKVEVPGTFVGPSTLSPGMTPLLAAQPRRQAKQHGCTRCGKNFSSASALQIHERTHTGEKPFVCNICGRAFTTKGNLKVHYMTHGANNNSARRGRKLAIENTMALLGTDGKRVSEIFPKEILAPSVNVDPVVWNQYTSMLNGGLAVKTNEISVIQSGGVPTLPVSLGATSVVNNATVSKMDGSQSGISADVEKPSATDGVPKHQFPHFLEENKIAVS
# Method: universal PBM
# Form: double-stranded DNA, one strand shown
# Sample: in vitro
# Concentration: 600 nM
# Setting: 8-mer, flanks averaged, mean of replicates
# Direction: higher = stronger binding
Oligonucleotide,E-score
GAAATCGA,0.0375
GACGGGCC,-0.39
CGACCAAG,-0.227
CTCCAGAG,-0.224
CTTGGAGC,-0.258
AGTTTAAC,0.065
GAGCAATA,0.166
GCGAACAC,-0.27
ACGTGGGG,-0.244
AGAGCCAT,-0.0705
CCTGGATC,-0.242
GCGCGCGA,-0.263
CGGAAGTA,-0.0524
CGGTCCTA,-0.26
CCCTTTAC,-0.127
GACGTGGA,-0.131
GCACTGAC,-0.109
AATCCGAT,0.152
ACGGCACT,-0.198
ACCATGCC,-0.154
AGGCTCCG,-0.232
AGCATTGA,0.069
GCAGTCCA,-0.0268
CAACTCGC,-0.0687
CATTCAAG,-0.00455

# Block 5
# Target: CCNE2, cyclin fold, Cln2 fusion (human)
# Method: yeast growth competition, sequencing
# Sample: yeast
# Setting: strong parent motif
# Relative to: not given
# Direction: higher = stronger binding
# Starting sequence: PKN2 docking peptide (human); VSAVRKLDFSDTM; partner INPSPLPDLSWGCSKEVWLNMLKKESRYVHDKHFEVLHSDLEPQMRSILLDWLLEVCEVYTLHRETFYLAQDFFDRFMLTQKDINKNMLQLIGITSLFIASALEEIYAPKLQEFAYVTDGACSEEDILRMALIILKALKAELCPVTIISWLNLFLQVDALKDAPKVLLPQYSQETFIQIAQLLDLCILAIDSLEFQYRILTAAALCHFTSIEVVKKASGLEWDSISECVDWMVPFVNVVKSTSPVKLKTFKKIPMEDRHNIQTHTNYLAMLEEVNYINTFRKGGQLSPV
Change,normalised enrichment score
D11N,5.24
A3H,6.03
V4L,0.988
S2P,3.76
D8E,3.84
A3E,0.353
L7W,0.0707
F9M,0.795
S2I,2.61
A3Y,4.6
T12N,4.76
A3T,3.12
A3C,5.06
D11T,4.9
S10T,4.44
S2C,3.79
F9R,0.218
L7Y,0.326
S10I,2.72
V4T,1.41
F9K,0.295
R5W,0.119
D11H,4.46
R5V,0.18
S10K,3.32

# Block 6
# Target: Hepatocyte nuclear factor 3-alpha (Foxa1, Mus musculus, UniProt P35582, residues 1-468, full length assumed)
# Chain of UniProt P35582 (whole entry, looked up): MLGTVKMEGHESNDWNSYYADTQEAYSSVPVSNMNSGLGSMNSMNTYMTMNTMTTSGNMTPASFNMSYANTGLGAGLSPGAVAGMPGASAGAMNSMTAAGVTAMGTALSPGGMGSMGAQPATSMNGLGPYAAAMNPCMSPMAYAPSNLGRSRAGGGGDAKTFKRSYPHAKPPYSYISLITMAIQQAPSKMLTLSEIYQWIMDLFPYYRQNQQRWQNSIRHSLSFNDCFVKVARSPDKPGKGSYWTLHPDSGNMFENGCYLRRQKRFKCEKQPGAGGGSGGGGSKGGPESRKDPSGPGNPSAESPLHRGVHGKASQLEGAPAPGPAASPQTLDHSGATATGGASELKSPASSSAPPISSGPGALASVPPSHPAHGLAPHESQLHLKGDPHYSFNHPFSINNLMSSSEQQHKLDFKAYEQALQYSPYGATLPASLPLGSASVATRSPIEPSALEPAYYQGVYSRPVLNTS
# Method: EMSA with sequencing
# Form: double-stranded DNA, one strand shown
# Sample: in vitro
# Concentration: 10 and 20 nM
# Setting: whole designed probe, mean of two concentrations, ends assumed
# Relative to: negative control set to 0
# Direction: higher = stronger binding
# Shared flanks, not repeated: GTGAGCGGTGCCCATTGATGGGGAAC … TTTCACTGGGATCGTGGGGAC
Oligonucleotide,normalised bound fraction
TTACTGACATGAAGAGCGTTGCTATAGTTTTAAGAGATTTTTTTTTTCTGATTTTAAACAAAAACTAGAATAAAAATTTTCACACTTTCAAAGTAATCTGAAAGGGGGGGATTGTGACATTTAGCACATGCAGTATGAGAATTATTGGTAAAAGAAAAGCCAAAAAAGGTTTACAACTGTCCCACGACAAAAA,-0.0437 ratio
TCAGGTTGCAGTGAGCTCTGATCGTGCCACTGCACTCCAGCCTGTGTGACAGAGCAAGGGCCTGTCTCTAAAAACAAAACAAAACAAAGCAAAACAAACATGAGAAGTCCAGATTCATACCTTGCAAAGAGGTTTCATTCGGCAGCAAGTTGAAATTATCTACTGGTTTGTACATGAGCTAGCACTTCCTCTT,0.468 ratio
GTGTGTGCGCGCGCGTGTGTGTGTGTTTTCTTAAGCCGGGCTATTCAAACCCTGCTGCCAATGATTCATAATTCTCCGGTAAAGGGGCACGTTTATTTGCATTAGATTGCAAACGGCGCGGTTCGCGCACTTTGCAGCCGGCCCGGTGGAGCAGCCAGTGCCGGATTTCTCCCTTTTTTTGCAGATCTGCAGA,0.439 ratio
CAAGACCCCTTGGCCCTCATCATGTTTTCCCAGCATCAAACCTTTAGACGTATTTAATGGCCCAAGGCATTCCAAGAATGAATATATTTGTGTGTACACAAGCAACCAACCAAAGAGATGGTTAATGTTTCATAAGACTGCCTAGTCACATTGTTGACATCTGAAACATCTTCTAATTTAAGACAGAGTTCAG,0.341 ratio
TGATTCATCTGTAGGTCTGCTTCAAATGACTTTGTTCTCTTGATTATGGGCCACATTTTCCAGCTTCTTTGTGTGTTTTAAACTTTTGTATTAAGAGTACTTTTACCTTACACACAAGCACATAAGCCATGTAAAGTCCCTGTTTTGGTGAGGTTGCAATTTTTGAGCCTCAAATTCTGACAGGAAGCCCCAG,0.0275 ratio
ATTTGATACACGAAGAAAATCCTGGATTTGCCTCTAAGAGTCTCCCACATTATAACAATAATATCAACAATGATACCAGTCTTGCCTTTCCAGTGTAAACATGAACAGACTCTTAAATATTAACTAAGTAGAACACAAGCTAGCTTTTTAATATTTTTATTTATTTAAAAAATGAAAAAGGAAATTATATAGA,0.443 ratio
GTGTGTGCGCGCGCGTGTGTGTGTGTTTTCTTAAGCCGGGCTATTCAAACCCTGCTGCAATTCTCCGGTAAAGGCAATGATTCATGGCACGTTTATTTGCATTAGATTGCAAACGGCGCGGTTCGCGCACTTTGCAGCCGGCCCGGTGGAGCAGCCAGTGCCGGATTTCTCCCTTTTTTTGCAGATCTGCAGA,0.421 ratio
AAAGAAAGCAGCTCACTGGGTGAAGGACCTTGAGAAAGAGATGAACATTTCCTCTCTTGAGACACAGGACAAACAAGGTCACGCCTGAGCTCGGCAAACAAGGACTTCGGTGCCTGCCTACGGCGCCATTGCGCCCTCTAGTGGCTGCTGAGGAACCGCTGTCCAGCCCGAAGCTCACAGAGCCCCGTTCAGG,0.1 ratio

# For quick reference, copied from above (block 5):
Change,normalised enrichment score
S10T,4.44
S2C,3.79
F9R,0.218
L7Y,0.326
S10I,2.72
V4T,1.41
F9K,0.295
R5W,0.119
D11H,4.46
